Measurements from different studies.
Protocols differ between the studies behind these lines. Converted amounts (≈) assume the structure as drawn.
Organism: Pseudomonas aeruginosa

SMILES	test	system	conditions	scale	measurement	result
O=C1NC(=O)c2c(NCCCc3cccc(O)c3)cccc21		PAO1	concentration not given, 18 h, added: ciprofloxacin 0.25 µg/mL	reference: ciprofloxacin alone	survival reduction	~50 fold
CC[C@H](C)[C@H](NC(=O)[C@H](CCCNC(=N)N)NC(=O)[C@H](CCCCN)NC(=O)[C@H](CC(C)C)NC(=O)[C@H](CC(C)C)NC(=O)CN)C(=O)N[C@@H](CCCCN)C(=O)N[C@H](C(=O)N[C@@H](CC(C)C)C(=O)N[C@@H](CC(C)C)C(=O)NCCCC[C@H](NC(=O)[C@H](CCCCNC(=O)[C@H](CC(C)C)NC(=O)[C@H](CC(C)C)NC(=O)[C@@H](NC(=O)[C@H](CCCCN)NC(=O)[C@@H](NC(=O)[C@H](CCCNC(=N)N)NC(=O)[C@H](CCCCN)NC(=O)[C@H](CC(C)C)NC(=O)[C@H](CC(C)C)NC(=O)CN)[C@@H](C)CC)[C@@H](C)O)NC(=O)[C@H](CC(C)C)NC(=O)[C@H](CC(C)C)NC(=O)[C@@H](NC(=O)[C@H](CCCCN)NC(=O)[C@@H](NC(=O)[C@H](CCCNC(=N)N)NC(=O)[C@H](CCCCN)NC(=O)[C@H](CC(C)C)NC(=O)[C@H](CC(C)C)NC(=O)CN)[C@@H](C)CC)[C@@H](C)O)C(N)=O)[C@@H](C)O	checkerboard	ATCC 27853	added: polymyxin B		FIC index	0.375
CC[C@H](C)[C@H](NC(=O)[C@H](C)NC(=O)[C@@H](NC(=O)[C@H](CC(=O)O)NC(=O)[C@H](CCCCN)NC(=O)[C@H](CO)NC(=O)[C@@H](NC(=O)[C@H](CC(N)=O)NC(=O)[C@H](C)NC(=O)[C@@H](NC(=O)[C@H](CCC(=O)O)NC(=O)[C@H](CCCCN)NC(=O)[C@@H](NC(=O)[C@@H](NC(=O)[C@H](Cc1c[nH]cn1)NC(=O)[C@H](CCCCN)NC(=O)[C@@H](NC(=O)[C@H](CCCCN)NC(=O)[C@H](CCCCN)NC(=O)[C@@H](NC(=O)[C@H](CC(C)C)NC(=O)[C@H](CCCCN)NC(=O)[C@H](CC(N)=O)NC(=O)[C@H](Cc1ccccc1)NC(=O)[C@H](CCCNC(=N)N)NC(=O)[C@H](CCCCN)NC(=O)[C@H](CCCNC(=N)N)NC(=O)[C@H](Cc1ccccc1)NC(=O)CN)C(C)C)C(C)C)[C@@H](C)O)[C@@H](C)CC)[C@@H](C)O)C(C)C)C(C)C)C(=O)N[C@H](C(=O)N[C@@H](C)C(=O)NCC(=O)N[C@@H](CO)C(=O)NCC(=O)N[C@H](C(=O)N[C@@H](C)C(=O)N[C@H](C(=O)NCC(=O)N[C@@H](C)C(=O)N[C@@H](C)C(=O)N[C@@H](CCSC)C(N)=O)C(C)C)C(C)C)C(C)C	broth microdilution	clinical isolates			MIC range	4 to 64 µg/mL (≈ 0.925 to 14.8 µM)
CC[C@H](C)[C@H](NC(=O)[C@H](CCCCN)NC(=O)[C@H](CCCCN)NC(=O)[C@H](CC(C)C)NC(=O)[C@H](CCCCN)NC(=O)[C@H](CCC(=O)O)NC(=O)[C@H](CCCCN)NC(=O)[C@@H](NC(=O)[C@H](CCCCN)NC(=O)[C@H](CC(N)=O)NC(=O)[C@H](CCCNC(=N)N)NC(=O)[C@H](Cc1ccccc1)NC(=O)[C@H](CCCCN)NC(=O)[C@H](CCCNC(=N)N)NC(=O)[C@H](CC(C)C)NC(=O)[C@H](CCCNC(=N)N)NC(=O)[C@H](CCCCN)NC(=O)[C@H](CCCNC(=N)N)NC(=O)[C@H](CC(C)C)NC(=O)[C@@H](N)CC(C)C)[C@@H](C)CC)C(=O)NCC(=O)N[C@@H](CCC(N)=O)C(=O)N[C@@H](CCCCN)C(=O)N[C@H](C(=O)N[C@@H](CCC(N)=O)C(=O)NCC(=O)N[C@@H](Cc1ccccc1)C(=O)N[C@H](C(=O)N1CCC[C@H]1C(=O)N[C@@H](CCCCN)C(=O)N[C@@H](CC(C)C)C(=O)N[C@H](C(=O)N1CCC[C@H]1C(=O)N[C@@H](CCCNC(=N)N)C(=O)N[C@H](C(=O)N[C@@H](CCC(=O)O)C(=O)N[C@@H](CO)C(=O)O)[C@@H](C)O)C(C)C)C(C)C)[C@@H](C)CC	inhibition zone method	11092618, LB 0.8% agar with 154 mM NaCl	overnight, 37 °C		lethal concentration	1.84 µM
CC(C)C[C@H](NC(=O)[C@@H]1CSCC(=O)N[C@@H](CCCCN)C(=O)N[C@@H](CC(C)C)C(=O)N[C@@H](CC(C)C)C(=O)NCCCC[C@@H]2NC(=O)[C@H](CC(C)C)NC(=O)[C@H](CC(C)C)NC(=O)[C@H](CCCCN)NC(=O)CSC[C@H](NC(=O)[C@H](CC(C)C)NC(=O)[C@H](CC(C)C)NC(=O)[C@H](CCCCN)NC2=O)C(=O)N[C@@H](CCCCN)C(=O)N[C@@H](CCCCN)C(=O)N[C@@H](CCCCN)C(=O)N1)C(N)=O		PAO1	24 to 25 h		minimal biofilm inhibitory concentration	8 µg/mL
CC[C@H](C)[C@H](NC(=O)[C@H](Cc1c[nH]cn1)NC(=O)[C@H](CCCCNC(=O)[C@@H](NC(=O)[C@H](CCCCN)NC(=O)CSC[C@H](NC(=O)[C@H](Cc1ccccc1)NC(=O)[C@H](CCCCNC(=O)[C@H](CC(C)C)NC(=O)[C@@H]1CCCN1C(=O)[C@H](CCCCN)NC(=O)C[C@@H]1O[C@@H](C)[C@@H](O)[C@@H](O)[C@@H]1O)NC(=O)[C@H](CC(C)C)NC(=O)[C@@H]1CCCN1C(=O)[C@H](CCCCN)NC(=O)c1ccc(O[C@@H]2O[C@H](CO)[C@H](O)[C@H](O)[C@H]2O)cc1)C(N)=O)[C@@H](C)CC)NC(=O)[C@@H](NC(=O)[C@H](CCCCN)NC(=O)CSC[C@H](NC(=O)[C@H](Cc1ccccc1)NC(=O)[C@H](CCCCNC(=O)[C@H](CC(C)C)NC(=O)[C@@H]1CCCN1C(=O)[C@H](CCCCN)NC(=O)C[C@@H]1O[C@@H](C)[C@@H](O)[C@@H](O)[C@@H]1O)NC(=O)[C@H](CC(C)C)NC(=O)[C@@H]1CCCN1C(=O)[C@H](CCCCN)NC(=O)c1ccc(O[C@@H]2O[C@H](CO)[C@H](O)[C@H](O)[C@H]2O)cc1)C(N)=O)[C@@H](C)CC)C(N)=O		PAO1	biofilm-forming conditions		MBC	> 45 µM
C[C@@](O)(C(F)F)[C@H](NC(=O)c1ccc(C#CC#CC2CC2)cc1)C(=O)NO	broth microdilution	PAO1	added: mouse plasma 50%	reference: CAMHB alone	MIC fold increase	4
CCCC(=O)NCC(=O)N[C@@H](CC(C)C)C(=O)N[C@@H](CC(C)C)C(=O)N[C@@H](CCCCN)C(=O)N[C@@H](CCCNC(=N)N)C(=O)N[C@H](C(=O)N[C@@H](CCCCN)C(=O)N[C@H](C(=O)N[C@@H](CC(C)C)C(=O)N[C@@H](CC(C)C)C(=O)NCCCC[C@H](NC(=O)[C@H](CC(C)C)NC(=O)[C@H](CC(C)C)NC(=O)[C@@H](NC(=O)[C@H](CCCCN)NC(=O)[C@@H](NC(=O)[C@H](CCCNC(=N)N)NC(=O)[C@H](CCCCN)NC(=O)[C@H](CC(C)C)NC(=O)[C@H](CC(C)C)NC(=O)CNC(=O)CCC)[C@@H](C)CC)[C@@H](C)O)C(=O)NCCCC[C@H](NC(=O)[C@H](CCCCNC(=O)[C@H](CC(C)C)NC(=O)[C@H](CC(C)C)NC(=O)[C@@H](NC(=O)[C@H](CCCCN)NC(=O)[C@@H](NC(=O)[C@H](CCCNC(=N)N)NC(=O)[C@H](CCCCN)NC(=O)[C@H](CC(C)C)NC(=O)[C@H](CC(C)C)NC(=O)CNC(=O)CCC)[C@@H](C)CC)[C@@H](C)O)NC(=O)[C@H](CC(C)C)NC(=O)[C@H](CC(C)C)NC(=O)[C@@H](NC(=O)[C@H](CCCCN)NC(=O)[C@@H](NC(=O)[C@H](CCCNC(=N)N)NC(=O)[C@H](CCCCN)NC(=O)[C@H](CC(C)C)NC(=O)[C@H](CC(C)C)NC(=O)CNC(=O)CCC)[C@@H](C)CC)[C@@H](C)O)C(N)=O)[C@@H](C)O)[C@@H](C)CC	checkerboard	ATCC 27853	added: polymyxin B		FIC index	0.188
CC[C@H](C)[C@H](NC(=O)[C@H](Cc1c[nH]cn1)NC(=O)[C@H](CCCCNC(=O)[C@@H](NC(=O)[C@H](CCCCN)NC(=O)[C@H](Cc1ccccc1)NC(=O)[C@H](CCCCNC(=O)[C@H](CC(C)C)NC(=O)[C@@H]1CCCN1C(=O)[C@H](CCCCN)NC(=O)CCS[C@@H]1O[C@H](CO)[C@H](O)[C@H](O)[C@H]1O)NC(=O)[C@H](CC(C)C)NC(=O)[C@@H]1CCCN1C(=O)[C@H](CCCCN)NC(=O)CCS[C@@H]1O[C@H](CO)[C@H](O)[C@H](O)[C@H]1O)[C@@H](C)CC)NC(=O)[C@@H](NC(=O)[C@H](CCCCN)NC(=O)[C@H](Cc1ccccc1)NC(=O)[C@H](CCCCNC(=O)[C@H](CC(C)C)NC(=O)[C@@H]1CCCN1C(=O)[C@H](CCCCN)NC(=O)CCS[C@@H]1O[C@H](CO)[C@H](O)[C@H](O)[C@H]1O)NC(=O)[C@H](CC(C)C)NC(=O)[C@@H]1CCCN1C(=O)[C@H](CCCCN)NC(=O)CCS[C@@H]1O[C@H](CO)[C@H](O)[C@H](O)[C@H]1O)[C@@H](C)CC)C(N)=O	biofilm formation	PAO1	24 h		MBIC	20 µM
CC[C@H](C)[C@H](NC(=O)[C@H](CCCCN)NC(=O)[C@H](CCCCN)NC(=O)[C@H](CC(C)C)NC(=O)[C@H](CCCCN)NC(=O)[C@H](CCC(=O)O)NC(=O)[C@H](CCCCN)NC(=O)[C@@H](NC(=O)[C@H](CCCCN)NC(=O)[C@H](CC(N)=O)NC(=O)[C@H](CCCNC(=N)N)NC(=O)[C@H](Cc1ccccc1)NC(=O)[C@H](CCCCN)NC(=O)[C@H](CCCNC(=N)N)NC(=O)[C@H](CC(C)C)NC(=O)[C@H](CCCNC(=N)N)NC(=O)[C@H](CCCCN)NC(=O)[C@H](CCCNC(=N)N)NC(=O)[C@@H](N)CC(C)C)[C@@H](C)CC)C(=O)NCC(=O)N[C@@H](CCC(N)=O)C(=O)N[C@@H](CCCCN)C(=O)N[C@H](C(=O)N[C@@H](CCC(N)=O)C(=O)NCC(=O)N[C@@H](Cc1ccccc1)C(=O)N[C@H](C(=O)N1CCC[C@H]1C(=O)N[C@@H](CCCCN)C(=O)N[C@@H](CC(C)C)C(=O)O)C(C)C)[C@@H](C)CC	inhibition zone	O1	LB agar, overnight		lethal concentration	2.1 µM
C[C@@H](c1ccccc1)N(CC(N)=O)C(=O)CN(C(=O)CN(CCCCN)C(=O)CN(C(=O)CN(C(=O)CN(CCCCN)C(=O)CN(C(=O)CN(C(=O)CN(CCCCN)C(=O)CN(C(=O)CN(C(=O)CNCCCCN)[C@@H](C)c1ccccc1)[C@@H](C)c1ccccc1)[C@@H](C)c1ccccc1)[C@@H](C)c1ccccc1)[C@@H](C)c1ccccc1)[C@@H](C)c1ccccc1)[C@@H](C)c1ccccc1		LESB58, mouse, abscess model	maximum tolerated dose, 1 h post infection		abscess size	36.8 mm²
ONCC1CCCCC1	measured: purine dNTPs		5000 µM, 3 h, exponential phase	reference: negative control	reduction of dNTP level	7.45%
CC[C@H](C)[C@H](NC(=O)[C@H](CCCCN)NC(=O)[C@H](CCCCN)NC(=O)[C@H](CC(C)C)NC(=O)[C@H](CCCCN)NC(=O)[C@H](CCC(=O)O)NC(=O)[C@H](CCCCN)NC(=O)[C@@H](NC(=O)[C@H](CCCCN)NC(=O)[C@H](CC(N)=O)NC(=O)[C@H](CCCNC(=N)N)NC(=O)[C@H](Cc1ccccc1)NC(=O)[C@H](CCCCN)NC(=O)[C@H](CCCNC(=N)N)NC(=O)[C@H](CC(C)C)NC(=O)[C@H](CCCNC(=N)N)NC(=O)[C@H](CCCCN)NC(=O)[C@H](CCCNC(=N)N)NC(=O)[C@H](CC(C)C)NC(=O)[C@@H](N)CCCNC(=N)N)[C@@H](C)CC)C(=O)NCC(=O)N[C@@H](CCC(N)=O)C(=O)N[C@@H](CCCCN)C(=O)N[C@H](C(=O)N[C@@H](CCC(N)=O)C(=O)NCC(=O)N[C@@H](Cc1ccccc1)C(=O)N[C@H](C(=O)N1CCC[C@H]1C(=O)N[C@@H](CCCCN)C(=O)N[C@@H](CC(C)C)C(=O)N[C@@H](CCC(N)=O)C(=O)N1CCC[C@H]1C(=O)N[C@@H](CO)C(=O)N[C@@H](CCCCN)C(=O)N[C@@H](CCC(N)=O)C(=O)N[C@@H](CO)C(=O)O)C(C)C)[C@@H](C)CC	inhibition zone method	14, LB 0.8% agar with 154 mM NaCl	overnight, 37 °C		lethal concentration	3.75 µM
